Measurements of several laboratories.
Protocols differ between the studies behind these lines. ± marks the error that the study gave.
Cell line: Jurkat

`CO[C@@H](C[C@H]1C(C)=CC[C@@H]2[C@]3(C)C[C@H](O[C@@H]4O[C@@H](C)[C@H](O)[C@@H](O)[C@H]4O)[C@@H](O)C(C)(C)[C@H]3CC[C@]21C)[C@H](N)C(=O)O` has an IC50 of 5.66 µM (cell growth or viability, CCK-8; 72 h).
The IC50 of `COc1ccc2c(c1)Cc1c-2nc(N)c(C#N)c1-c1ccc(CO)o1` is reported as 50.1 µM (cell growth or viability, ATP luminescence).
For `CC(C)c1ccc(N(C)c2ccc3c(c2)OCC[C@H]3CNc2cnccc2C(=O)O)cc1`, the IC50 was 0.0027 µM (cell growth or viability, MTS; 7 days).
`N#Cc1c(N)nc2c(c1-c1ccc(F)cc1)Cc1cc(O)ccc1-2` gave an IC50 of 13.4 µM (cell growth or viability, ATP luminescence).
With `Cc1cc(C)cc(NC(=O)N(Cc2ccc(C(=O)NO)cc2)OCc2ccccc2)c1` the IC50 was 4.68 ± 0.197 µM (cell viability; 72 h).
With `COc1cc(C(=O)N/N=C/c2cccc3ccccc23)cc(OC)c1OC` the IC50 was 0.0843 µM (cell growth or viability, MTT; 48 h).
For `CN1CCC(N[C@H]2CCc3[nH]c4c(C(N)=O)ccc(-c5ccccc5Cl)c4c3C2)CC1`, the IC50 was 3.1 µM (cell growth or viability).
With `N#Cc1c(N)nc2c(c1-c1ccc(CO)o1)Cc1cccc(O)c1-2` the IC50 was greater than 100 µM (cell viability, CellTiter-Glo; no inhibition at 100 µM).
With `NC(=O)c1ccc(-c2ccccc2Cl)c2c3c([nH]c12)CC[C@H](N)C3` the IC50 was 0.0422 µM (cell growth or viability).
With `COC(CC1C(C)=CCC2C1(C)CCC1C(C)(C)C(O)C(O)CC12C)C(N)C(=O)O` (stereo not shown) the IC50 was greater than 10 µM (cell growth or viability, CCK-8; 72 h).

Excerpt of the above:
For `CC(C)c1ccc(N(C)c2ccc3c(c2)OCC[C@H]3CNc2cnccc2C(=O)O)cc1`, the IC50 was 0.0027 µM (cell growth or viability, MTS; 7 days).
